Measurements pooled from the literature.
Protocols differ between the studies behind these lines. Values joined by “and” are separate records of one study, mostly repeats; a detail may differ. ± marks the error that the study gave.
B1: UGT1A9 (Homo sapiens, UniProt O60656); chain GKLLVVPMDGSHWFTMRSVVEKLILRGHEVVVVMPEVSWQLGRSLNCTVKTYSTSYTLEDLDREFKAFAHAQWKAQVRSIYSLLMGSYNDIFDLFFSNCRSLFKDKKLVEYLKESSFDAVFLDPFDNCGLIVAKYFSLPSVVFARGILCHYLEEGAQCPAPLSYVPRILLGFSDAMTFKERVRNHIMHLEEHLLCHRFFKNALEIASEILQTPVTEYDLYSHTSIWLLRTDFVLDYPKPVMPNMIFIGGINCHQGKPLPMEFEAYINASGEHGIVVFSLGSMVSEIPEKKAMAIADALGKIPQTVLWRYTGTRPSNLANNTILVKWLPQNDLLGHPMTRAFITHAGSHGVYESICNGVPMVMMPLFGDQMDNAKRMETKGAGVTLNVLEMTSEDLENALKAVINDKSYKENIMRLSSLHKDRPVEPLDLAVFWVEFVMRHKGAPHLRPAAHDLTWYQYHSLDVIGFLLAVVLTVAFITFKCCAYGYRKCLGKKGRVKKAHKSKTH
B2: CAND1 15-1230 (UniProt Q86VP6); N-terminal FlAsH tetracysteine tag; sequence looked up; chain MTSSDKDFRFMATNDLMTELQKDSIKLDDDSERKVVKMILKLLEDKNGEVQNLAVKCLGPLVSKVKEYQVETIVDTLCTNMLSDKEQLRDISSIGLKTVIGELPPASSGSALAANVCKKITGRLTSAIAKQEDVSVQLEALDIMADMLSRQGGLLVNFHPSILTCLLPQLTSPRLAVRKRTIIALGHLVMSCGNIVFVDLIEHLLSELSKNDSMSTTRTYIQCIAAISRQAGHRIGEYLEKIIPLVVKFCNVDDDELREYCIQAFESFVRRCPKEVYPHVSTIINICLKYLTYDPNYNYDDEDEDENAMDADGGDDDDQGSDDEYSDDDDMSWKVRRAAAKCLDAVVSTRHEMLPEFYKTVSPALISRFKEREENVKADVFHAYLSLLKQTRPVQSWLCDPDAMEQGETPLTMLQSQVPNIVKALHKQMKEKSVKTRQCCFNMLTELVNVLPGALTQHIPVLVPGIIFSLNDKSSSSNLKIDALSCLYVILCNHSPQVFHPHVQALVPPVVACVGDPFYKITSEALLVTQQLVKVIRPLDQPSSFDATPYIKDLFTCTIKRLKAADIDQEVKERAISCMGQIICNLGDNLGSDLPNTLQIFLERLKNEITRLTTVKALTLIAGSPLKIDLRPVLGEGVPILASFLRKNQRALKLGTLSALDILIKNYSDSLTAAMIDAVLDELPPLISESDMHVSQMAISFLTTLAKVYPSSLSKISGSILNELIGLVRSPLLQGGALSAMLDFFQALVVTGTNNLGYMDLLRMLTGPVYSQSTALTHKQSYYSIAKCVAALTRACPKEGPAVVGQFIQDVKNSRSTDSIRLLALLSLGEVGHHIDLSGQLELKSVILEAFSSPSEEVKSAASYALGSISVGNLPEYLPFVLQEITSQPKRQYLLLHSLKEIISSASVVGLKPYVENIWALLLKHCECAEEGTRNVVAECLGKLTLIDPETLLPRLKGYLISGSSYARSSVVTAVKFTISDHPQPIDPLLKNCIGDFLKTLEDPDLNVRRVALVTFNSAAHNKPSLIRDLLDTVLPHLYNETKVRKELIREVEMGPFKHTVDDGLDIRKAAFECMYTLLDSCLDRLDIFEFLNHVEDGLKDHYDIKMLTFLMLVRLSTLCPSAVLQRLDRLVEPLRATCTTKVKANSVKQEFEKQDELKRSAMRAVAALLTIPEAEKSPLMSEFQSQISSNPELAAIFESIQKDSSSTNLESMDTS
UniProt P70618, sequence (whole entry, looked up): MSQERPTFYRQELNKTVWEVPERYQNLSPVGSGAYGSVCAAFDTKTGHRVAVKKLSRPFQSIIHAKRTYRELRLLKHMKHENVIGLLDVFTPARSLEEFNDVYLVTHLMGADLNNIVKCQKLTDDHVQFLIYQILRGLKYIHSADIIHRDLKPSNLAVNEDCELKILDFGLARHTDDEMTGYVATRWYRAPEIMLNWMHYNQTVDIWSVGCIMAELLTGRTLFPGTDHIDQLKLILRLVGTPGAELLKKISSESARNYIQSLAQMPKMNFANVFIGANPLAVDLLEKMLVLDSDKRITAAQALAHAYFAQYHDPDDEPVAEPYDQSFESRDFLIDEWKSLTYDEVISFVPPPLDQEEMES
UniProt Q12798, sequence (whole entry, looked up): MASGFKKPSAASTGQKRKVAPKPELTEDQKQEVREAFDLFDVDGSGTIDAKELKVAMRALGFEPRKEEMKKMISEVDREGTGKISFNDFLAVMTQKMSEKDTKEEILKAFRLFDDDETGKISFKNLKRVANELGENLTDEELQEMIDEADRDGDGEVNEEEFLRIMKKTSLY
UniProt Q13586, sequence (whole entry, looked up): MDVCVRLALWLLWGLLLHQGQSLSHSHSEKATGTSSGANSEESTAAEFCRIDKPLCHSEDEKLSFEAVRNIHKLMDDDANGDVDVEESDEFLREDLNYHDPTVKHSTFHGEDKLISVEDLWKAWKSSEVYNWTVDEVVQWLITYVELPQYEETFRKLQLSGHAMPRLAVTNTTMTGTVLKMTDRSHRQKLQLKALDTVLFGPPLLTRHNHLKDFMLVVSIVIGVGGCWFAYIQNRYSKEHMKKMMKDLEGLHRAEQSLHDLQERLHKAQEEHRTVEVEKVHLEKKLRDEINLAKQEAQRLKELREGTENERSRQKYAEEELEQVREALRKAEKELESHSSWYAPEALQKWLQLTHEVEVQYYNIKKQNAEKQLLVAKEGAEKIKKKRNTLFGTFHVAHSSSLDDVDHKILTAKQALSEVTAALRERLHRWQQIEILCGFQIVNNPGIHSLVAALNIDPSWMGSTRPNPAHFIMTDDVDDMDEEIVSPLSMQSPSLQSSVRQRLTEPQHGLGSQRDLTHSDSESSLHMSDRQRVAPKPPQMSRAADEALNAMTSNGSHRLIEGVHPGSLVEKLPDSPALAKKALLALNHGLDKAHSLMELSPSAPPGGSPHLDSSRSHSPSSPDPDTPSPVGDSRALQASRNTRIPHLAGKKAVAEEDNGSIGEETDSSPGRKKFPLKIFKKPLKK
UniProt P12259, sequence (whole entry, unmodified, looked up): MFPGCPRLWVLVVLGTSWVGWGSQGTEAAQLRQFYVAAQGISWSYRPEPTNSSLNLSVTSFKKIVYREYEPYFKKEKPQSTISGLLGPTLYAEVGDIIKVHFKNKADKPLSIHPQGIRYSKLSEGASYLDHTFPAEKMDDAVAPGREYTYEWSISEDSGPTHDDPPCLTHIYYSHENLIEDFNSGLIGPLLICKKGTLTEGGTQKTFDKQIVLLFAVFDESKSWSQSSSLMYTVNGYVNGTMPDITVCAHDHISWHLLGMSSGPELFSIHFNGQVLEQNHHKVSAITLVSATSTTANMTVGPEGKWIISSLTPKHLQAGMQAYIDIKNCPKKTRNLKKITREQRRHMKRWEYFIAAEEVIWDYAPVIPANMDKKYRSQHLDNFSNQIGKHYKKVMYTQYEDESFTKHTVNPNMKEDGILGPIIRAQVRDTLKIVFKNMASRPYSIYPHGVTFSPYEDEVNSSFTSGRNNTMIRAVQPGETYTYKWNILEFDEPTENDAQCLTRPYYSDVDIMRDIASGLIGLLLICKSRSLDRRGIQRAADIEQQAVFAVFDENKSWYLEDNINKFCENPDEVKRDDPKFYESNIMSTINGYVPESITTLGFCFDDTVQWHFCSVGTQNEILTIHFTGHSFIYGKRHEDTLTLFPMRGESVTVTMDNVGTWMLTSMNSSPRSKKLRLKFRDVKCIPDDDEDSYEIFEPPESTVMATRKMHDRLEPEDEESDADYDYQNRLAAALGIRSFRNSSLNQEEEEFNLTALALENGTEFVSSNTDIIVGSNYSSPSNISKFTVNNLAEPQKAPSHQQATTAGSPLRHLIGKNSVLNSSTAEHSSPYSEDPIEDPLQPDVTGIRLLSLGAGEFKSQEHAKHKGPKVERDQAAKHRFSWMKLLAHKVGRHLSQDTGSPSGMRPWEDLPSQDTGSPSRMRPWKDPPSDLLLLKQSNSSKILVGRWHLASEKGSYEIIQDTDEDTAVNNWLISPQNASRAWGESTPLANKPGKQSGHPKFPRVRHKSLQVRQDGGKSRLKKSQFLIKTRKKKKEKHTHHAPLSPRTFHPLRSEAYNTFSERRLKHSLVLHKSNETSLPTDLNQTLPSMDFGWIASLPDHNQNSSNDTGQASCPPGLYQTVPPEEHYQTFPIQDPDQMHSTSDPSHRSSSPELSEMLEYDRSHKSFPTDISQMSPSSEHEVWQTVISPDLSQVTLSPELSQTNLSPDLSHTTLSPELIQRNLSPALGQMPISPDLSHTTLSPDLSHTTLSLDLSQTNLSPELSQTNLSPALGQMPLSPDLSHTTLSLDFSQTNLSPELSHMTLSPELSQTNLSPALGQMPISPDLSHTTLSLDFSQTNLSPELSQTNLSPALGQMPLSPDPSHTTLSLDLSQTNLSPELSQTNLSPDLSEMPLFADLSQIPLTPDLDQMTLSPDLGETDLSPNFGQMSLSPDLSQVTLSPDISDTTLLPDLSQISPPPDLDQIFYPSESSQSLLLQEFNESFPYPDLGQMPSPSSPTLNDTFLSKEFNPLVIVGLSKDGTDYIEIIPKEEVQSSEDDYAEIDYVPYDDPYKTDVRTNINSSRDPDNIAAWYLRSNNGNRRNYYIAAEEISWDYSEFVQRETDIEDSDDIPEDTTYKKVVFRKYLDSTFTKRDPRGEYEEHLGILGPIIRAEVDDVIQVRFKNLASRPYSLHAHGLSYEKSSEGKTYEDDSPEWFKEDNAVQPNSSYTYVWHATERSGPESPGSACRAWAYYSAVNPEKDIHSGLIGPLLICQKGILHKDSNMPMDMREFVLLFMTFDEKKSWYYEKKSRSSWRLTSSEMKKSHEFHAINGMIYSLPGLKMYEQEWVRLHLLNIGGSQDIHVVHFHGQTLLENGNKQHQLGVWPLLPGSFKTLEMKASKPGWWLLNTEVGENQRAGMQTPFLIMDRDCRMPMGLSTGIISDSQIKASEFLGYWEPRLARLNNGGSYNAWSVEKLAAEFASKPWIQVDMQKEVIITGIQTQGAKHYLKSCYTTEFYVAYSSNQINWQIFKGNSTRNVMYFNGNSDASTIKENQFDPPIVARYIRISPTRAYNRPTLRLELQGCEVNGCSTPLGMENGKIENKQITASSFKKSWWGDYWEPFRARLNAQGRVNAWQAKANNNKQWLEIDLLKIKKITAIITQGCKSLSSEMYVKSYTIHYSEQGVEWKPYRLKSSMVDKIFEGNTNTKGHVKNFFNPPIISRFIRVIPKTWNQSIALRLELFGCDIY
UniProt Q9LX31, sequence (whole entry, looked up): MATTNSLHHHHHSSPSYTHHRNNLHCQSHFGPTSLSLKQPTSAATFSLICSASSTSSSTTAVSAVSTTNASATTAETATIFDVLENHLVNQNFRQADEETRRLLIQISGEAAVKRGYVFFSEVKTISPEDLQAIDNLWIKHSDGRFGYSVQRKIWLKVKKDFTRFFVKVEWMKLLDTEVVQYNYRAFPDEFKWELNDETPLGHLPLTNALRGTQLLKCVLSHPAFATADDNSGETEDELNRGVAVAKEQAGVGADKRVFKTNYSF
UniProt P12689, sequence (whole entry, looked up): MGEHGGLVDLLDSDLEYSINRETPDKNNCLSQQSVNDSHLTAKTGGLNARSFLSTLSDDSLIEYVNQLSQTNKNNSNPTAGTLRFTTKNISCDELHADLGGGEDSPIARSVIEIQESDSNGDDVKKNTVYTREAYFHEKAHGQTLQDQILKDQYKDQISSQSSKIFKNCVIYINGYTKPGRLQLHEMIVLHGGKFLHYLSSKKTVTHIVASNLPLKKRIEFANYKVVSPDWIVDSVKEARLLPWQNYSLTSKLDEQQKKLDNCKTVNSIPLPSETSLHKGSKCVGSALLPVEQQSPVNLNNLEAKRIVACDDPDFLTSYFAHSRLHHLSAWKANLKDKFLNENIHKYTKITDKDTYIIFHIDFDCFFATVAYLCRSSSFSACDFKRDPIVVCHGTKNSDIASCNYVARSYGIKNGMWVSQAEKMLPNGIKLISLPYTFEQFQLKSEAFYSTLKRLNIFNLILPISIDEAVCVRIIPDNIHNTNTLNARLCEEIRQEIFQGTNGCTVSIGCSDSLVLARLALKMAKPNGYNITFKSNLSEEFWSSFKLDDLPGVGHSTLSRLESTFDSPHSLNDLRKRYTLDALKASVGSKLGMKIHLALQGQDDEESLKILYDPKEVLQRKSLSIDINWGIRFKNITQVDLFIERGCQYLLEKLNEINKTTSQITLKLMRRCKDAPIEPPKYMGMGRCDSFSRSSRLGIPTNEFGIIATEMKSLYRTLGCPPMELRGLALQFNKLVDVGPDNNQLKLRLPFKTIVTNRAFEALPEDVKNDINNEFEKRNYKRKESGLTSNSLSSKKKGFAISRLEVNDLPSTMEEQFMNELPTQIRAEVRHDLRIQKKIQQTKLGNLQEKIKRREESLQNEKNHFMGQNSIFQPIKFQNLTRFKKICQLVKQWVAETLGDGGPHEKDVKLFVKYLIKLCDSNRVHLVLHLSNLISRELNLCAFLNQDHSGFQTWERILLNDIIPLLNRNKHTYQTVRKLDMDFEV
UniProt Q96D31, sequence (whole entry, looked up): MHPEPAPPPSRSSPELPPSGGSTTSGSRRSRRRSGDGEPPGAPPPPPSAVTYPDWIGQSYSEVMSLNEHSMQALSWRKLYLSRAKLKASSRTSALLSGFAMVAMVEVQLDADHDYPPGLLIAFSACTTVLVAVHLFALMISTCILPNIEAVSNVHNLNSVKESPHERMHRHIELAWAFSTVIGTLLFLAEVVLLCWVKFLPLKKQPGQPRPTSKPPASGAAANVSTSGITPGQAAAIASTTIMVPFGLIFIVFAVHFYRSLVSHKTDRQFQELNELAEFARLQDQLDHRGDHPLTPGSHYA

Molecule	tested on	test	test system	conditions	scale	measurement	value
TFPI (Homo sapiens, UniProt P10646-1)	F5 B-domain deleted 811-1490 R709Q/R1545Q (UniProt P12259)	prothrombinase inhibition, inhibitor		together with: fondaparinux 0.8 u/mL		IC50	0.0084 µM
RAD30 (Saccharomyces cerevisiae, UniProt Q04049)	REV1, Cy5 label (Saccharomyces cerevisiae, UniProt P12689)	single-molecule TIRF		pH 7.5		koff	0.73 ± 0.02 s⁻¹
STIM1 (Homo sapiens, UniProt Q13586)	ORAI1 (Homo sapiens, UniProt Q96D31)	I_CRAC recovery, whole-cell patch clamp	HEK293T			temperature for half recovery	36.9 °C
haspin GFP fusion (Xenopus laevis)	TOP2A/SUMO2 CTD 1222-1579, SUMO2-conjugated lysines (Xenopus laevis)	pull-down	interphase egg extract		reference: mitotic Haspin-GFP, higher = less abundant	relative abundance	73%
SUMO1 fragment H89E (Arabidopsis thaliana)	SAE2/SAE1a (Arabidopsis thaliana)	SUMO conjugation		42 °C	reference: native AtSUMO1, higher = faster conjugation	SUMO conjugation rate	90%
B1 (UGT1A9)	O=c1c(O)c(-c2ccc(O)c(O)c2)oc2cc(O)cc(O)c12	steady-state kinetics		pH 7.4, 37 °C		Vmax	0.00382 µmol/min/mg and 0.00188 µmol/min/mg and 0.0033 µmol/min/mg
B2 (CAND1 15-1230)	CUL1/RBX1/SKP1/SKP2, C-terminal AMC	FRET				koff	67 s⁻¹
Ac-SQHNRQLLRGALRRWK-NH2 (SFI1 repeat 18, 677-692 (Homo sapiens); N-acetyl; C-terminal amide)	CETN1, phosphothreonine (Homo sapiens, UniProt Q12798)	ITC	peptide	one-site model, together with: CaCl2 1 mM		molecule per partner	0.65
Ac-DVSNKAYEDAEAKAKYEAEAAFFANLKLSD-NH2 (PRKG1 peptide residues 329-358; N-acetyl, C-terminal amide)	PRKG1 Iα (UniProt P00516)	PKG Iα kinase activity, activator	peptide		reference: cGMP controls, higher = stronger activation	maximal activation efficacy	80%
Ac-GRPCA-NH2 (PTX3 100-104 A100G, N-acetyl/C-terminal amide (Homo sapiens); N-acetyl/C-terminal amide)	FGF2 18 kD form (Homo sapiens)	cell proliferation, antagonist	peptide, GM7373	3-1000 µM, together with: FGF2 0.55 nM		ID50	15 µM
FGF8b (Homo sapiens)	FGFR3 isoform IIIc (unknown, UniProt Q61851)	cell proliferation, MTT	BaF3-FGFR3c	20 nM, 48 h, together with: unmodified decamer 4.9 µg/mL	reference: FGF 1 with heparin, higher = more proliferation	cell proliferation	13%
YAGRRKERPTSLNVFP (MAPK8IP3 D-site peptide (Homo sapiens))	Mapk14, pT180, pY182 (Rattus norvegicus, UniProt P70618)	kinase activity, inhibitor, competitive kinase inhibition assay	peptide	together with: ATP 1 mM		IC50	> 100 µM
cpSRP43 substrate-binding domain (Arabidopsis thaliana)	GUN4 mature (UniProt Q9LX31)	heat-induced aggregation, light scattering			reference: cpSRP43-FL, higher = weaker chaperone activity	chaperone activity	> 20 fold lower

Some of these lines once more:
Molecule	tested on	test	test system	conditions	scale	measurement	value
SUMO1 fragment H89E (Arabidopsis thaliana)	SAE2/SAE1a (Arabidopsis thaliana)	SUMO conjugation		42 °C	reference: native AtSUMO1, higher = faster conjugation	SUMO conjugation rate	90%
B1 (UGT1A9)	O=c1c(O)c(-c2ccc(O)c(O)c2)oc2cc(O)cc(O)c12	steady-state kinetics		pH 7.4, 37 °C		Vmax	0.00382 µmol/min/mg and 0.00188 µmol/min/mg and 0.0033 µmol/min/mg
